Assay results of several laboratories.
Lines come from different studies, so protocols differ. Several values in a cell are separate wells, animals, samples, runs or records. ± marks the error that the study gave. ≈ marks a conversion by molar mass, not a printed value.

`COc1ncc(-c2nc3c(n2C(C)C)[C@H](c2ccc(Cl)cc2)N(c2cc(Cl)cn(C)c2=O)C3=O)c(OC)n1` gave an AUC(0-last) of 6320 ng·h/mL (LC-MS/MS, noncompartmental; human, plasma; oral, 150 mg, cycle 1 day 8, high-dose, geometric mean).
With `Cc1nc2cccc(OCC(C)(C)C(=O)NC(C)C)c2c(N)c1C(=O)O` the AUClast ratio was 0.82 ± 0.3 (Sprague-Dawley rat, female, plasma; oral, 100 mg/kg, day 7 over day 1, 7-day repeated dosing; reference: day 7 over day 1).
The tumour-to-liver ratio of `COc1cccc(OC)c1-c1cc(C(=O)NC2(C(=O)O)C3CC4CC(C3)CC2C4)nn1-c1ccc(C(=O)N(C)CCCN(C)CCCN(C)C(=O)CN2CCN(CC(=O)[O-])CCN(CC(=O)[O-])CCN(CC(=O)[O-])CC2)cc1C(C)C.[177Lu+3]` (stereo not drawn) is reported as 20.1 (mouse, HT-29 xenograft; 24 h post injection, biodistribution; reference: tumour over liver uptake).
Under “medical device site dermatitis”, `Cc1cc(-c2nccc3c2ccn3CC(=O)Nc2ccc(-c3cnccn3)cn2)ccn1` is recorded as 66.7% (human; 15 mg once daily, multiple ascending dose).
With `COc1cc2[nH]c(C)c(-c3ccc(N(C)C)nc3)c(=O)c2cc1Cl` the kinetic solubility was 6 to 12 µM (≈ 2.06 to 4.13 µg/mL) (pH 7.4).
The half-life of `CCn1cc(C(=O)N2CCOCC2)c(=O)c2cc(NC3Cc4ccccc4C3)cnc21` is reported as 4.41 h (human, fasted; oral suspension, 300 mg single dose, arithmetic mean).
`COC(=O)c1ccccc1C1=c2cc3c4c(c2Oc2c1ccc1cccc(O)c21)CCC[N+]=4CCC3.[Cl-]` — result for “molar extinction coefficient”: 14500 M⁻¹ cm⁻¹ (12.5 mM aqueous NaOH; pH 12.1, 10% DMSO).
With `Cc1nc(-c2ccc(OCC(C)C)c(C#N)c2)sc1C(=O)O` the body weight was 38.6 g and 36 g and 45 g and 34.2 g and 40.4 g and 41.4 g (KM mouse, chronic hyperuricaemia model; dose not given, day 28).
For `C=CCN1CC(=O)N2[C@@H](Cc3ccc(O)cc3F)C(=O)N(Cc3cccc(N4CC(N5CCN(CC)CC5)C4)n3)C[C@@H]2N1C(=O)NCc1ccccc1`, “treatment-related AST increased” read 25% (advanced solid tumour patients; oral, 120 mg twice daily, any grade, dose-escalation).
`CN[C@H](CC(C)C)C(=O)N[C@H]1C(=O)N[C@@H](CC(N)=O)C(=O)N[C@H]2C(=O)N[C@H]3C(=O)N[C@H](C(=O)N[C@H](C(=O)O)c4cc(O)cc(O)c4-c4cc3ccc4O)[C@H](O)c3ccc(c(Cl)c3)Oc3cc2cc(c3O[C@@H]2O[C@H](CO)[C@@H](O)[C@H](O)[C@H]2O[C@H]2C[C@](C)(N)[C@H](O)[C@H](C)O2)Oc2ccc(cc2Cl)[C@H]1O` has a storage stability of at least 6 months (mass spectrometry; PBS; 7 mg/mL, -80 °C, no decomposition detected).
With `N#Cc1ccc2c(c1)[C@H]1CCCN(C(=O)c3ccc4[nH]cnc4c3)[C@H]1C2` the androstenedione level was 10.7 nmol/L (human, male; 160 mg, day 7).
`C[C@@H]1COCCN1c1cc(C2([S@](C)(=N)=O)CC2)nc(-c2cc[nH]c3nccc2-3)n1` gave a Fatigue incidence of 16.7% (Japanese advanced solid tumour patients; oral, 240 mg twice daily, any grade).
`COc1cccc(-c2n[nH]c(SCc3ccccn3)n2)c1OC`: “serum total bilirubin” 0.1 mg/dL (Sprague-Dawley rats, male; diet, 30 mg/kg/day, terminal, 90-day subchronic study).
`CC=CC1CCC(C2CCC(CCC)CC2)CC1` (stereo not drawn): “median fetal accumulation” 0.883 ng/g (rat, fetus; 5000 ng/mL in perfusate, high dose, mixture of 21 LCMs).
`CCC(C)n1ncn(-c2ccc(N3CCN(c4ccc(OCC5COC(Cn6cncn6)(c6ccc(Cl)cc6Cl)O5)cc4)CC3)cc2)c1=O` (stereo not drawn) has an adverse events of 0% (healthy human volunteers; oral, 200 mg, event Dizziness, continued dosing).
Under “time to maximum uptake”, `O=C(O)CCCOc1ccc([18F])cc1-c1cc(-c2ccccc2C(F)(F)F)n(-c2ccccc2)n1` is recorded as 55 min (dynamic PET; healthy male C57BL/6J mice, myocardium; intravenous, isoflurane anaesthesia).
The half-life, mean of `C[C@H]1CN(C(=O)CC#N)[C@]12CCN(c1ncnc3[nH]ccc13)C2` is reported as 2.9 h (healthy adults, plasma; oral, 6 mg single dose).
For `FC(F)(F)c1ccc(CNc2ccc(Cc3c[nH]c4ncc(Cl)cc34)cn2)cn1`, “treatment-related adverse events” read 0% (item: Dizziness; patients with advanced solid tumours, non-TGCT cohort; oral, 1000 mg/day, grade 3 or higher).
`CNC(=O)c1ccc(-c2cnc3ncc(Cc4ccc5ncccc5c4)n3n2)cc1F` — result for “back pain incidence”: 3% (cancer patients; oral, dose not given, all grades dose escalation).
The AUCinf increase of `N#CCNC(=O)c1ccc(-c2ccnc(Nc3ccc(N4CCOCC4)cc3)n2)cc1` is reported as 57% (healthy volunteers, plasma; oral, dose not given, together with: rifampin single-dose; reference: compound alone).
With `CCNCCCNC/C=C\CNCCCNCC` the AUMC(0-inf) was 506 ng·h²/mL (LC-MS/MS; human cancer patients, plasma; intravenous infusion 60 min, 100 mg, median, cycle 1).

Excerpt of the above:
For `C=CCN1CC(=O)N2[C@@H](Cc3ccc(O)cc3F)C(=O)N(Cc3cccc(N4CC(N5CCN(CC)CC5)C4)n3)C[C@@H]2N1C(=O)NCc1ccccc1`, “treatment-related AST increased” read 25% (advanced solid tumour patients; oral, 120 mg twice daily, any grade, dose-escalation).
`CN[C@H](CC(C)C)C(=O)N[C@H]1C(=O)N[C@@H](CC(N)=O)C(=O)N[C@H]2C(=O)N[C@H]3C(=O)N[C@H](C(=O)N[C@H](C(=O)O)c4cc(O)cc(O)c4-c4cc3ccc4O)[C@H](O)c3ccc(c(Cl)c3)Oc3cc2cc(c3O[C@@H]2O[C@H](CO)[C@@H](O)[C@H](O)[C@H]2O[C@H]2C[C@](C)(N)[C@H](O)[C@H](C)O2)Oc2ccc(cc2Cl)[C@H]1O` has a storage stability of at least 6 months (mass spectrometry; PBS; 7 mg/mL, -80 °C, no decomposition detected).
With `N#Cc1ccc2c(c1)[C@H]1CCCN(C(=O)c3ccc4[nH]cnc4c3)[C@H]1C2` the androstenedione level was 10.7 nmol/L (human, male; 160 mg, day 7).
